Experimental data pooled from the literature.
Compare with care: the assays were run in different laboratories.
TDP1: Tyrosyl-DNA phosphodiesterase 1 (TDP1, Homo sapiens, UniProt Q9NUW8)
Chain of UniProt Q9NUW8 (whole entry, looked up): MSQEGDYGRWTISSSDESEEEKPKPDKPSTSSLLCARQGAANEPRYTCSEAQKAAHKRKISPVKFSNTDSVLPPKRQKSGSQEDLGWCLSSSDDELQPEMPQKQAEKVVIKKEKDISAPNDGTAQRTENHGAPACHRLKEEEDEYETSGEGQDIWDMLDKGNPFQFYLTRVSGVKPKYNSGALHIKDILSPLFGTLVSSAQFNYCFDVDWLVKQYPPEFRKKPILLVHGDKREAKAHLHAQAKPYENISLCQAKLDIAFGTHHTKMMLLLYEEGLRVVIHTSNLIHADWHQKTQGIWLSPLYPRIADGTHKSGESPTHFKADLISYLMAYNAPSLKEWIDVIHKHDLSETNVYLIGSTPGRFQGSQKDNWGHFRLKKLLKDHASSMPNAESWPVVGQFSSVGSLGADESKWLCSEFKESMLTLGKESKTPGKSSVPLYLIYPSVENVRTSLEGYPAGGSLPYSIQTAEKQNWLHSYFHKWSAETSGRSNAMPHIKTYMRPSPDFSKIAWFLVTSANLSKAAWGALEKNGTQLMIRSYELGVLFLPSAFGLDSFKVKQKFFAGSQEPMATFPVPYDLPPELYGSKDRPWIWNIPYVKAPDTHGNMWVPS

Cc1sc2ccc(C=NOCc3ccc(-c4nc5cc(-c6ccccc6)ccn5c4Nc4ccc(C(=O)O)cc4)cc3)cc2[n+]1C.[I-] (mixture of isomers)  inhibition (TDP1; enzyme activity, inhibitor; 100 µM, unpurified compound): 101%
O=C(OC(C(F)(F)F)C(F)(F)F)N1CCC(CNS(=O)(=O)c2ccc(Cl)cc2)CC1  Tmax (male SCID mouse, brain; oral, 30 mg/kg): 4 h
C=C(NC(=O)c1csc(-c2nc3c(cc2O)-c2nc(cs2)C(=O)NC(C(C)O)C(=O)NC(=C(C)OC)c2nc(cs2)C(=O)NC2c4nc(cs4)C(=O)NC(COC(=O)c4c5c6c(cccc6n4O)COC(=O)C(OC4CC(C)(O)C(N(C)C)C(C)O4)C2OC5)c2nc-3cs2)n1)C(N)=O (centres unmarked)  Tmax (ICR mice, Streptococcus pneumoniae ATCC 49169 infected, immunocompromised, blood; intravenous, 16 mg/kg/day three times daily): 12.1 h
O=S(=O)(N[C@H]1CCO[C@@H](C2c3ccccc3CCc3ccccc32)C1)c1ccc(OC(F)(F)F)cc1  Tmax (mouse, plasma; oral, 30 mg/kg): 2 h
Cn1c2cc([S+](C)[O-])sc2c2cnn(Cc3cccc(N)c3)c(=O)c21 (centres unmarked)  Tmax (male BALB/c mouse, plasma; oral, 10 mg/kg, single dose): 0.25 h
[2H]C([2H])([2H])NC(=O)c1ccc(N2C(=S)N(c3ccc(C#N)c(C(F)(F)F)c3)C(=O)C2(C)C)cc1F  Tmax (male human, plasma; oral, 160 mg, single dose, fasted): 1.35 h
COc1cnc2cccc(N3CCc4c(cc(Cn5ccnc5)cc4-c4cn(C)nc4C(F)(F)F)C3=O)c2c1  Tmax (male CD-1 mouse, plasma; oral, 50 mg/kg): 0.6 h
CC(C)C[C@H](NC(=O)[C@H](CCCN)NC(=O)CNC(=O)[C@@H](NC(=O)[C@H](C)NC(=O)[C@@H]1CSCSC[C@H](NC(=O)CC[C@H](N)C(=O)O)C(=O)N[C@@H](CC(N)=O)C(=O)N[C@@H]([C@@H](C)O)C(=O)N[C@@H](C)C(=O)N[C@@H]([C@@H](C)O)C(=O)N1)[C@@H](C)O)C(=O)N[C@@H](C)C(=O)N[C@@H](CCC(=O)O)C(=O)N[C@@](C)(Cc1ccccc1)C(=O)N[C@@H](CC(C)C)C(=O)N[C@H](C(=O)N[C@@H](CCCNC(=N)N)C(=O)N[C@@H](CO)C(=O)N[C@@H](CO)C(=O)N[C@@H](CC(N)=O)C(=O)N(C)[C@@H](CC(N)=O)C(=O)N[C@@H](Cc1ccccc1)C(=O)NCC(=O)N1CCC[C@H]1C(=O)N[C@@H](CCCCNC(=O)CC[C@H](NC(=O)CC[C@H](NC(=O)CCCCCCCCCCCCCCCCCCC(=O)O)C(=O)O)C(=O)O)C(=O)N[C@@H](CC(C)C)C(=O)N1CCC[C@H]1C(=O)N1CCC[C@H]1C(=O)N[C@H](C(=O)N[C@@H](CCC(=O)O)C(=O)N[C@H](C(=O)NCC(=O)N[C@@H](CO)C(=O)N[C@@H](CC(N)=O)C(=O)N[C@H](C(=O)N[C@@H](Cc1ccc(O)cc1)C(N)=O)[C@@H](C)O)C(C)C)[C@@H](C)O)C(C)C  Tmax (human, plasma; subcutaneous, 12 mg, single dose, healthy volunteers): 96 h
O=C(O)c1ccc(Nc2c(-c3ccccc3)nc3ccc(CON=Cc4ccc(OCc5ccccc5)cc4)cn23)cc1 (mixture of isomers)  inhibition (TDP1; enzyme activity, inhibitor; 100 µM, unpurified compound): 40.3%
Cc1cc(NC(=O)[C@H](O)c2cc(F)cc(F)c2)ccc1-c1cnc(N)c(C(=O)NC(C)C)c1  Tmax (female nude mouse, plasma; oral, 100 mg/kg, single dose): 1 h
C/C(N)=N/C(=N\S(=O)(=O)c1ccc(C(F)(F)F)cc1)N1C[C@H](c2ccccc2)C(c2ccc(Cl)cc2)=N1  Tmax (beagle dog, plasma; oral, 12 mg/kg): 2 h
